{"data": "Measurements from different studies", "CDK9": "Cyclin-dependent kinase 9 (CDK9, Homo sapiens, UniProt P50750)", "GAP50": "Glideosome-associated protein 50 (GAP50, Plasmodium falciparum, UniProt Q8I2X3)", "Kir3.1/Kir3.2": "Kir3.1/Kir3.2 (Homo sapiens, UniProt P48051+P48549)", "USP51 ZnF-UBD domain": "Ubiquitin carboxyl-terminal hydrolase 51, ZnF-UBD domain (USP51, Homo sapiens, UniProt Q70EK9)", "note": "Protocols differ between the studies behind these lines. ± marks the error that the study gave.", "UniProt Q70EK9, sequence (whole entry, looked up)": "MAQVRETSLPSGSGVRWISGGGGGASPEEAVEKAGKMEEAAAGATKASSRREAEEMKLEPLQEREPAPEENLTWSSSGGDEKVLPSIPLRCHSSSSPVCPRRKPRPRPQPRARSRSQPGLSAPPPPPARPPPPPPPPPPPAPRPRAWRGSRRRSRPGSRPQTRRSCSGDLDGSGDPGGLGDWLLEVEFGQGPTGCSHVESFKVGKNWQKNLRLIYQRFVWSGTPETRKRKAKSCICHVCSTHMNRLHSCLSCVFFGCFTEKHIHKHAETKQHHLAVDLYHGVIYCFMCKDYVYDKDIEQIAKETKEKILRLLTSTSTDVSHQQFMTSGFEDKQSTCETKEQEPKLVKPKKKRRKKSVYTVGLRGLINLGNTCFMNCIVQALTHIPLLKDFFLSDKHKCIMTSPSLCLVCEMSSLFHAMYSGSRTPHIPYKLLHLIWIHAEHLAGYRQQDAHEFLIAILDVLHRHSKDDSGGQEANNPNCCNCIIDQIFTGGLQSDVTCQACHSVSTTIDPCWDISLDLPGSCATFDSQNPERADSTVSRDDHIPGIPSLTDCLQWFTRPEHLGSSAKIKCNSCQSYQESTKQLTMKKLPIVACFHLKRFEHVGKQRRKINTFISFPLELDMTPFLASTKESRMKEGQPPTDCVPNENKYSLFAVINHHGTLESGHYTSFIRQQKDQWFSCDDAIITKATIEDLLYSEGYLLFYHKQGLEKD", "UniProt P48549, sequence (whole entry, looked up)": "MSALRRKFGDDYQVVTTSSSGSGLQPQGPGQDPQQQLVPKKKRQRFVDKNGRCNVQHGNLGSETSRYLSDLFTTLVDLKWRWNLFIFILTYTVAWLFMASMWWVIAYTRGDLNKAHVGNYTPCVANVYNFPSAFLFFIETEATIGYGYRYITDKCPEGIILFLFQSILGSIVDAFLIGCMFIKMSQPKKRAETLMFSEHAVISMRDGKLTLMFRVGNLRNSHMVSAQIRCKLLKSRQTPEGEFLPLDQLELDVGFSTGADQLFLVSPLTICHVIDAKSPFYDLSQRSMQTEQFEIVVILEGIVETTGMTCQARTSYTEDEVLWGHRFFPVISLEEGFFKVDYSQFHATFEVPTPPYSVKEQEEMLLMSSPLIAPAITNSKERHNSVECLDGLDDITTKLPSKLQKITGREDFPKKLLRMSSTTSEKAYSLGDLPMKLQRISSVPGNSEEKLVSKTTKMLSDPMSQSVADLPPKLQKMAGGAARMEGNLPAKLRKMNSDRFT", "UniProt P48051, sequence (whole entry, looked up)": "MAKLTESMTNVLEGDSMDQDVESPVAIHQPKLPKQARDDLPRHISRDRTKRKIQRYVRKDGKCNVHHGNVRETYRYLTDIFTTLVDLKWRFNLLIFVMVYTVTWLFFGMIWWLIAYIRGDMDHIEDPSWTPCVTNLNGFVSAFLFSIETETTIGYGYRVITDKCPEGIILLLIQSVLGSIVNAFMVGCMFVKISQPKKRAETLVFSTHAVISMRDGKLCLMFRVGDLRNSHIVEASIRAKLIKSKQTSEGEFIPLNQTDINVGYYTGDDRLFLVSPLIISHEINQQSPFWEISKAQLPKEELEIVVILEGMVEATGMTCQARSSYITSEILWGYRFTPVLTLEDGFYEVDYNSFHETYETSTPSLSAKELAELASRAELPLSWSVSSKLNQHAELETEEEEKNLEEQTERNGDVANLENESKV", "UniProt Q8I2X3, sequence (whole entry, looked up)": "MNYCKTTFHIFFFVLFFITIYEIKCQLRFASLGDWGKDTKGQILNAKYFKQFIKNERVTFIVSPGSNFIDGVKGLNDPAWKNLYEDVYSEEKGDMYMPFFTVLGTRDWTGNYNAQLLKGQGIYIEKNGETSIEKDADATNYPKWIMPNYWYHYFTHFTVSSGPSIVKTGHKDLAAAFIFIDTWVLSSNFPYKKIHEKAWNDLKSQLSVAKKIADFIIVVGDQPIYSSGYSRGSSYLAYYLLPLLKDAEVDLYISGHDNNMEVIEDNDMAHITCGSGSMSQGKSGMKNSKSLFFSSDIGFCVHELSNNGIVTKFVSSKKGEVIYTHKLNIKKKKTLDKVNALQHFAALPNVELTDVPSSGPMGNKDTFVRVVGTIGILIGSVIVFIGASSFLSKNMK", "UniProt P50750, sequence (whole entry, looked up)": "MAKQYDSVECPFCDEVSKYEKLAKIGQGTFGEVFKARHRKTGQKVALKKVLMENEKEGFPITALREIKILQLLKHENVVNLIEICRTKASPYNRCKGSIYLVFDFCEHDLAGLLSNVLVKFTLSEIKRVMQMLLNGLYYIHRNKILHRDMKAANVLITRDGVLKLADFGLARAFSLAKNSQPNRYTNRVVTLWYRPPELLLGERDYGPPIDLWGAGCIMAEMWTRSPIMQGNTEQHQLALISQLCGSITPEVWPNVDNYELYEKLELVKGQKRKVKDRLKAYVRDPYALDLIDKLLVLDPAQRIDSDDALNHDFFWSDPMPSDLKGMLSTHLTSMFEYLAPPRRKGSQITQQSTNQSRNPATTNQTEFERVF", "UniProt P42684, sequence (whole entry, looked up)": "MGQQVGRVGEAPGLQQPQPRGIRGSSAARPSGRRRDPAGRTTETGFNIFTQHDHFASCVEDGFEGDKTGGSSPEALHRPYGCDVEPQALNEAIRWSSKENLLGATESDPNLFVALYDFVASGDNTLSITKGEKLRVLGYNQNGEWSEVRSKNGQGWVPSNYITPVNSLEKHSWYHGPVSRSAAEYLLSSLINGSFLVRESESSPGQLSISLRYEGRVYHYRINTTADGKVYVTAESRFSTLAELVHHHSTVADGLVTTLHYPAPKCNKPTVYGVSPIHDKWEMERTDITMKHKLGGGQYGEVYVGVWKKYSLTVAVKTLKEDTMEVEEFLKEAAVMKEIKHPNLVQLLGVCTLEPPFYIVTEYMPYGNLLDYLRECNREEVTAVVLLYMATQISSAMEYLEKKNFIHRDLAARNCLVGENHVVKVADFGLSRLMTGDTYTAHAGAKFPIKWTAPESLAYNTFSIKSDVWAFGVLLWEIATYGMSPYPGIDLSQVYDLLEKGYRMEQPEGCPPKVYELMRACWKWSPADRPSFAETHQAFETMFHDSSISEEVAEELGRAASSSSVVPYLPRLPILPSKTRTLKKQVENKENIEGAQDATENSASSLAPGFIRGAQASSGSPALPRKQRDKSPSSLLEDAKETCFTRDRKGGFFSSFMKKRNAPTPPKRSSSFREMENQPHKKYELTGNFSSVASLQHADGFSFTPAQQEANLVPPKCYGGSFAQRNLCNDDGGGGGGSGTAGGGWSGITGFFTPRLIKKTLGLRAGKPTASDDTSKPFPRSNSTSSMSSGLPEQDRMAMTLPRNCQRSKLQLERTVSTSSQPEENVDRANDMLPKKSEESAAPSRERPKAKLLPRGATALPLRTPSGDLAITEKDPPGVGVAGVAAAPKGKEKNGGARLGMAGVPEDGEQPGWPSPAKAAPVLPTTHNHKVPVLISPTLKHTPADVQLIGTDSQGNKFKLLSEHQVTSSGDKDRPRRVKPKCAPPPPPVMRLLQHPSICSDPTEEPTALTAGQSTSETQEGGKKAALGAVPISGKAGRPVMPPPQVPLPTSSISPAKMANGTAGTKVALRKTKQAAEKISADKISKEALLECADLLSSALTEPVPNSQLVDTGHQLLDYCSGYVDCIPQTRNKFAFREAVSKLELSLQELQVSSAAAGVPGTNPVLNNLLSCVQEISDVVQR", "UniProt Q15418, sequence (whole entry, looked up)": "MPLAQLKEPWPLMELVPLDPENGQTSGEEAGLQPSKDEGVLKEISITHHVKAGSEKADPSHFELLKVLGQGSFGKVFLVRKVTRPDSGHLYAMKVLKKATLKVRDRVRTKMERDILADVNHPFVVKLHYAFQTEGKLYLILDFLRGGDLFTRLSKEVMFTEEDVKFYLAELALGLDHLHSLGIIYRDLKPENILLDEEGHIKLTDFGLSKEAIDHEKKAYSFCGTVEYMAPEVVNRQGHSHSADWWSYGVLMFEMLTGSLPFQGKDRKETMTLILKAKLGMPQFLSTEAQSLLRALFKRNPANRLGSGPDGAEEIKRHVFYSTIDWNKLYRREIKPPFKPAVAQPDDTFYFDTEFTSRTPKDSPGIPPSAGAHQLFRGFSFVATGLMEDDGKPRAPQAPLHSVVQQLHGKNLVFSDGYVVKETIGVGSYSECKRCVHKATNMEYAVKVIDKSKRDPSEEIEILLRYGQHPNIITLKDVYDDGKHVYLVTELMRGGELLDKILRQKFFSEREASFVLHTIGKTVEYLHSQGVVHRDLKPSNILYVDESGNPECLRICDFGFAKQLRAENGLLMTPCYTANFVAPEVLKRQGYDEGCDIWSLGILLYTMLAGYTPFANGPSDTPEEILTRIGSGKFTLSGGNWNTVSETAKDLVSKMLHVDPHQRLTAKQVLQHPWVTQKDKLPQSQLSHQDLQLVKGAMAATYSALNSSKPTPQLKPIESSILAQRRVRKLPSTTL", "UniProt O54438, sequence (whole entry, looked up)": "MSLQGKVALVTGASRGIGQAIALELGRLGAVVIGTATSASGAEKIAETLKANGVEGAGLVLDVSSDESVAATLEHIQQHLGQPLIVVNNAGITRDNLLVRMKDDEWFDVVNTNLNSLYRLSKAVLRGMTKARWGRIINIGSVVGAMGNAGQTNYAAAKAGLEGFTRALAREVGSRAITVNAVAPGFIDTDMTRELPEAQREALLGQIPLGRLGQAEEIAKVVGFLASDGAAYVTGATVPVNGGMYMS"}
{"SMILES": "CCCCCCCC(=O)OCC", "target": "uncharacterized protein (Drosophila suzukii, UniProt A0AB39ZGK5)", "assay": "binding, bis-ANS competition fluorescence", "setting": "pH 7.4, with: bis-ANS", "quantity": "IC50", "value": "> 50 µM"}
{"SMILES": "CCCCCCCCCCCCCC", "target": "uncharacterized protein (Bradysia odoriphaga, UniProt A0A2S0X9G4)", "assay": "binding, competitive fluorescence displacement", "quantity": "Ki", "value": "> 50 µM"}
{"SMILES": "CC(C)(C)c1cnc(CSc2cnc(NC(=O)C3CCN(C(=O)COCCOCCN4Cc5cc6c(cc5C4)C(=O)N(C4CCC(=O)NC4=O)C6=O)CC3)s2)o1 (stereo not drawn)", "target": "CDK9", "assay": "degrader, Western blot", "test system": "TC-71", "quantity": "DC50", "value": "0.0161 ± 0.0049 µM"}
{"SMILES": "NC(=O)c1ccc[n+]([C@@H]2O[C@H](COP(=O)(O)OP(=O)(O)OC[C@H]3O[C@@H](n4cnc5c(N)ncnc54)[C@H](OP(=O)(O)O)[C@@H]3O)[C@@H](O)[C@H]2O)c1", "target": "NADPH--cytochrome P450 reductase (Rattus norvegicus, UniProt P00388, del2-56)", "assay": "cytochrome c reduction, competitive inhibitor", "setting": "S678X mutant, with: NADPH", "quantity": "Ki", "value": "14.2 µM"}
{"SMILES": "NC(=O)c1sc(-c2ccccc2)cc1NC(=O)c1cccs1", "target": "3-oxoacyl-[acyl-carrier-protein] reductase FabG (fabG, Pseudomonas aeruginosa, UniProt O54438)", "quantity": "IC50", "value": "0.04 µM"}
{"SMILES": "CC[C@@H]1[C@H](F)C(=O)N[C@@H]1COc1nccc2cc(C(N)=O)c(OC)cc12", "target": "Ribosomal protein S6 kinase alpha-1 (RPS6KA1, Homo sapiens, UniProt Q15418)", "assay": "ATP-site binding, ActivX kinase profiling", "test system": "THP-1 cell lysate", "setting": "RSK1 domain 2 Lys2 probe peptide", "quantity": "IC50", "value": "> 5 µM"}
{"SMILES": "CC(=O)C(C)O (stereo not drawn)", "target": "uncharacterized protein (Drosophila suzukii, UniProt A0AB39ZGK5)", "assay": "binding, bis-ANS competition fluorescence", "setting": "pH 7.4, with: bis-ANS", "quantity": "IC50", "value": "> 50 µM"}
{"SMILES": "O=S(=O)(Nc1ccccc1)c1ccc(NC(=S)Nc2ccccc2)cc1", "target": "GAP50", "assay": "binding, surface plasmon resonance", "setting": "1:1 binding model", "quantity": "Kd", "value": "2.61 µM"}
{"SMILES": "O=C(COc1cc(Cl)ccc1Cl)Nc1cc(C2CC2)nn1CC(F)(F)F", "target": "Kir3.1/Kir3.2", "assay": "activator, thallium flux", "test system": "HEK293", "quantity": "EC50", "value": "1.21 µM"}
{"SMILES": "Cc1ccc(NC(=O)c2ccc(C)c(C(F)(F)F)c2)cc1C#Cc1nn(C2CCC(O)CC2)c2ncnc(N)c12 (stereo not drawn)", "target": "Tyrosine-protein kinase ABL2 (ABL2, Homo sapiens, UniProt P42684)", "assay": "inhibitor, radiometric kinase", "setting": "with: ATP 10 µM", "quantity": "IC50", "value": "0.004 µM"}
{"SMILES": "CC(C)(C)c1cnc(CSc2cnc(NC(=O)C3CCN(C(=O)CCCCCCCN4Cc5cc6c(cc5C4)C(=O)N(C4CCC(=O)NC4=O)C6=O)CC3)s2)o1 (stereo not drawn)", "target": "CDK9", "assay": "degrader, Western blot", "test system": "SK-UT-1 uterine leiomyosarcoma", "setting": "6 h", "quantity": "DC50", "value": "< 0.01 µM"}
{"SMILES": "COc1cc[nH]c1/C=C1\\C(=O)Nc2ccc([N+](=O)[O-])c(N3CC[C@@H](O)C3)c21", "target": "CMGC kinase panel", "assay": "enzyme activity, KinaseProfiler", "setting": "1 µM", "scale": "baseline: DMSO", "quantity": "remaining activity", "value": "< 50%"}
{"SMILES": "Cn1cncc1[C@@](N)(c1ccc(Cl)cc1)c1ccc2c(c1)c(-c1cccc(Cl)c1)cc(=O)n2C", "target": "GAP50", "assay": "binding, surface plasmon resonance", "setting": "1:1 binding model", "quantity": "Kd", "value": "55.2 µM"}
{"SMILES": "O=C(O)CC1Oc2ccccc2NC1=O (stereo not drawn)", "target": "USP51 ZnF-UBD domain", "quantity": "Kd", "value": "> 1000 µM"}
{"SMILES": "COc1ccc(Oc2ccc([C@@H](C)N(C)c3ncc4c(N)nc(N)nc4n3)cc2)cc1", "target": "GAP50", "assay": "binding, surface plasmon resonance", "setting": "1:1 binding model", "quantity": "Kd", "value": "577 µM"}
{"SMILES": "Cc1cc(NC(=O)C2CCc3cc(Cl)ccc3O2)n(C2CCS(=O)(=O)C2)n1 (stereo not drawn)", "target": "Kir3.1/Kir3.2", "assay": "activator, thallium flux", "test system": "HEK293", "quantity": "EC50", "value": "3.68 µM"}
{"SMILES": "N#Cc1c2n(c3c(=O)n(CC(=O)O)cnc13)CCCC2", "target": "USP51 ZnF-UBD domain", "quantity": "Kd", "value": "> 1000 µM"}
{"SMILES": "CN1CCN(c2ccc(Nc3ncc4cc(C#N)c(=O)n(C5CCCC5)c4n3)cc2)CC1", "target": "Tyrosine-protein kinase Lck (LCK, Homo sapiens, UniProt P06239)", "quantity": "IC50", "value": "0.0214 µM"}
{"SMILES": "Cc1cc(NC(=O)CNC2CCNCC2)n(C2CCS(=O)(=O)C2)n1 (stereo not drawn)", "target": "Kir3.1/Kir3.2", "assay": "activator, thallium flux", "test system": "HEK293", "quantity": "EC50", "value": "> 10 µM"}
{"SMILES": "O=C(O)c1cc(-c2ccc(Br)cc2)nc2ccc(Cl)cc12", "target": "GAP50", "assay": "binding, surface plasmon resonance", "setting": "1:1 binding model", "quantity": "Kd", "value": "9.3 µM"}
{"SMILES": "NC(=O)[C@H]1CCCN1C(=O)CCC(=O)O", "target": "USP51 ZnF-UBD domain", "quantity": "Kd", "value": "> 1000 µM"}
{"note": "A few entries again:"}
{"SMILES": "O=C(O)CC1Oc2ccccc2NC1=O (stereo not drawn)", "target": "USP51 ZnF-UBD domain", "quantity": "Kd", "value": "> 1000 µM"}
{"SMILES": "COc1ccc(Oc2ccc([C@@H](C)N(C)c3ncc4c(N)nc(N)nc4n3)cc2)cc1", "target": "GAP50", "assay": "binding, surface plasmon resonance", "setting": "1:1 binding model", "quantity": "Kd", "value": "577 µM"}
{"SMILES": "Cc1cc(NC(=O)C2CCc3cc(Cl)ccc3O2)n(C2CCS(=O)(=O)C2)n1 (stereo not drawn)", "target": "Kir3.1/Kir3.2", "assay": "activator, thallium flux", "test system": "HEK293", "quantity": "EC50", "value": "3.68 µM"}
{"SMILES": "N#Cc1c2n(c3c(=O)n(CC(=O)O)cnc13)CCCC2", "target": "USP51 ZnF-UBD domain", "quantity": "Kd", "value": "> 1000 µM"}
